# Results of several laboratories.
# Every numbered part comes from another study and shows a few of its results, in no order. “And” joins repeats or separate records; there may be more than shown.
# UniProt O96017, sequence (whole entry, looked up): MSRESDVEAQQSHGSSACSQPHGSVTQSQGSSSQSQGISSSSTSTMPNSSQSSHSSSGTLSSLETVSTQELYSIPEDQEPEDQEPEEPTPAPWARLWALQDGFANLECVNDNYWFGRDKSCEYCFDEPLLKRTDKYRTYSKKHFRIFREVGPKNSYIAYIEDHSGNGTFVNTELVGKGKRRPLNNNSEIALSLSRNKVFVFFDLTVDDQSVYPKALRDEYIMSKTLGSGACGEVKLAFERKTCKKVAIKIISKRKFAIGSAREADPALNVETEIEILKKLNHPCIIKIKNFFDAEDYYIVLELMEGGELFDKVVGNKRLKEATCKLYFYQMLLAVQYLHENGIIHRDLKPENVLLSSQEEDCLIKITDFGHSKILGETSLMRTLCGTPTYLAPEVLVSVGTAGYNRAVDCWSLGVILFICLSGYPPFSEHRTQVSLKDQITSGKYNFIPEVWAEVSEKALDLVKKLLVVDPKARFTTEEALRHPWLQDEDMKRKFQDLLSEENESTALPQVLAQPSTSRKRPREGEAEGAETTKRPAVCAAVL
# UniProt Q16513, sequence (whole entry, looked up): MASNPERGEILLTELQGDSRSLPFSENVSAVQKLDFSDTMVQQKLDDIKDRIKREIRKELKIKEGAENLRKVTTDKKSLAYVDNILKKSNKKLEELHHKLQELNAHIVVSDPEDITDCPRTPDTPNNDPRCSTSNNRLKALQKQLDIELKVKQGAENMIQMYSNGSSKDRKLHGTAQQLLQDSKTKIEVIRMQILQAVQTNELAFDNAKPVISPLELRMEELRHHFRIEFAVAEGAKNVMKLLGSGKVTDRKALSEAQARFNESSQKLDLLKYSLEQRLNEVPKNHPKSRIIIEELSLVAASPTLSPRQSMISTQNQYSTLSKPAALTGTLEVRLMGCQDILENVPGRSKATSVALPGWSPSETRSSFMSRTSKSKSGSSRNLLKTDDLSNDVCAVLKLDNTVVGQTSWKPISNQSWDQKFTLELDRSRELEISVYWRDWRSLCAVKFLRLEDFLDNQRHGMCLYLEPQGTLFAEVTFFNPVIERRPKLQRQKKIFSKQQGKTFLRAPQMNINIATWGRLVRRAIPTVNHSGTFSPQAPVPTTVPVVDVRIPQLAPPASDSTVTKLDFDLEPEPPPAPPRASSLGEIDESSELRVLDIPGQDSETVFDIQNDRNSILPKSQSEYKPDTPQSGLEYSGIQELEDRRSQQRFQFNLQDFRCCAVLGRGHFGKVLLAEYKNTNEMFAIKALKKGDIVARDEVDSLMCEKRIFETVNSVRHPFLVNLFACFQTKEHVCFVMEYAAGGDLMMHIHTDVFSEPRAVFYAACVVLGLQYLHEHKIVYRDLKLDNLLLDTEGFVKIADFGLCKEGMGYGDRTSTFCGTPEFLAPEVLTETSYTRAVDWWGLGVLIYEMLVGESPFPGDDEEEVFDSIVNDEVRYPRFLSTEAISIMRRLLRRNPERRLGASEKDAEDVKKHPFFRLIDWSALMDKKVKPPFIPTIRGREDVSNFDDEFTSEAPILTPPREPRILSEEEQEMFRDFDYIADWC
# UniProt Q96NX5, sequence (whole entry, looked up): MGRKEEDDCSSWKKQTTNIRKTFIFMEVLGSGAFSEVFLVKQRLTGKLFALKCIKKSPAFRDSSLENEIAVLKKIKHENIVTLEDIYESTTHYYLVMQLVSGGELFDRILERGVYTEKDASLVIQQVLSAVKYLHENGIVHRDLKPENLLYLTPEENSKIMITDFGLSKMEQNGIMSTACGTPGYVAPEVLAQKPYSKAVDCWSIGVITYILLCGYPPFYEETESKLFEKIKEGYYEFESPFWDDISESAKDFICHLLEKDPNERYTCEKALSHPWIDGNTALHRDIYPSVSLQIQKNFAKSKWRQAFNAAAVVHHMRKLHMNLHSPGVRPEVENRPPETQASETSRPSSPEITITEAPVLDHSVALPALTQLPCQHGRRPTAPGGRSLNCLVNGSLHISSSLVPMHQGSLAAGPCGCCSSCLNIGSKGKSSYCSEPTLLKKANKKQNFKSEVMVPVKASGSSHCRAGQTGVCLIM
# UniProt P50613, sequence (whole entry, looked up): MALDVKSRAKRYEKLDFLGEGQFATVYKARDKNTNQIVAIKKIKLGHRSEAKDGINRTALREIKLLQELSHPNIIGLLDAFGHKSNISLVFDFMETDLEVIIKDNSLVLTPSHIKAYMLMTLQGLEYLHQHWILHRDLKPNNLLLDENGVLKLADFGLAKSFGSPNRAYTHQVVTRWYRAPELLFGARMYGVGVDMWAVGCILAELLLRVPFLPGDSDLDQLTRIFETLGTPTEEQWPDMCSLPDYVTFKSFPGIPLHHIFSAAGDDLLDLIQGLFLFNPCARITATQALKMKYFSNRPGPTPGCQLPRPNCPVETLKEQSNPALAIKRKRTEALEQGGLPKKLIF
# UniProt Q8IVH8, sequence (whole entry, looked up): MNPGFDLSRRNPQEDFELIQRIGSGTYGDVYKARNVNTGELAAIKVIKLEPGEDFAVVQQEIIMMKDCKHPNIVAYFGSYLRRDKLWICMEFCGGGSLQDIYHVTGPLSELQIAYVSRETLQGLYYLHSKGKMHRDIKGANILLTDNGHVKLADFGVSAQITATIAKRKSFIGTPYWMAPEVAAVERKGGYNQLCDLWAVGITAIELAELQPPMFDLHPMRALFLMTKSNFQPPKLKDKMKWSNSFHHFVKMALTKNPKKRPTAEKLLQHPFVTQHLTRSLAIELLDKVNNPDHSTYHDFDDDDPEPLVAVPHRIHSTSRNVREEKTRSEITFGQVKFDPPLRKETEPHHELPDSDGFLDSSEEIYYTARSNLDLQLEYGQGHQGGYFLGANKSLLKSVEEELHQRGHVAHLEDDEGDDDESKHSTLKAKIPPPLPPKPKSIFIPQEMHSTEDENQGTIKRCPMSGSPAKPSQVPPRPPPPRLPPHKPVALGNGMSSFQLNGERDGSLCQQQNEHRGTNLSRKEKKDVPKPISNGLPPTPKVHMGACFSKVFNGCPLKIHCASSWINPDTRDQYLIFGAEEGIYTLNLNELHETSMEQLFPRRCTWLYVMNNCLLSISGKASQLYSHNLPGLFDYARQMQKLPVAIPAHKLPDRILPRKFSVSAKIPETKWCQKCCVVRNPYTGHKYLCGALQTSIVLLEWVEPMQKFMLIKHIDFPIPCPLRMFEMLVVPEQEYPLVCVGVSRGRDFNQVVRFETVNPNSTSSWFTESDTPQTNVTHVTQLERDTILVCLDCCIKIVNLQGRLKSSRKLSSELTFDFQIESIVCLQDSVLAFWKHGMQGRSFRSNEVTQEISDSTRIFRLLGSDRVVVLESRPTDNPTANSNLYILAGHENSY
# UniProt P53779, sequence (whole entry, looked up): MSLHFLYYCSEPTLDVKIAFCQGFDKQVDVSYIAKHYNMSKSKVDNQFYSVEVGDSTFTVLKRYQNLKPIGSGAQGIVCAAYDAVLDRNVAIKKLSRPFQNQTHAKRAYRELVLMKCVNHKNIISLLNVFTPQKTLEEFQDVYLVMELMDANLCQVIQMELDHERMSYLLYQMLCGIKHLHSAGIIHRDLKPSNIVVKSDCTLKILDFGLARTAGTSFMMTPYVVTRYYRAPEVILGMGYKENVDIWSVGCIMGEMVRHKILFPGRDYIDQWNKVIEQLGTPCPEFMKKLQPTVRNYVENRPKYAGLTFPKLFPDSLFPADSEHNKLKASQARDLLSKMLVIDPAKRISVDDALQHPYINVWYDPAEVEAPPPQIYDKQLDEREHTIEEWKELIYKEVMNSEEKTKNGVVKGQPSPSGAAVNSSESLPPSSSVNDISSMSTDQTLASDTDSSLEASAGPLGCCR
# UniProt Q92519, sequence (whole entry, looked up): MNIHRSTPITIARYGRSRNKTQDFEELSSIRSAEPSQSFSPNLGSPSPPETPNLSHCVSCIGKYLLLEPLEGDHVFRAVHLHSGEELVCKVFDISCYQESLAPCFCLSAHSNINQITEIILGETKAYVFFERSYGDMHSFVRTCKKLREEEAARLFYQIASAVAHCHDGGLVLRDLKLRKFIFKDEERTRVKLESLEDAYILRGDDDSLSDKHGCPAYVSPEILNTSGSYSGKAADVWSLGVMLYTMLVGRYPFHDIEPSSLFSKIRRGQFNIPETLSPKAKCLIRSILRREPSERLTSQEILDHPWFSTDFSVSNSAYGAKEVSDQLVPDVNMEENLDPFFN
# UniProt Q16644, sequence (whole entry, looked up): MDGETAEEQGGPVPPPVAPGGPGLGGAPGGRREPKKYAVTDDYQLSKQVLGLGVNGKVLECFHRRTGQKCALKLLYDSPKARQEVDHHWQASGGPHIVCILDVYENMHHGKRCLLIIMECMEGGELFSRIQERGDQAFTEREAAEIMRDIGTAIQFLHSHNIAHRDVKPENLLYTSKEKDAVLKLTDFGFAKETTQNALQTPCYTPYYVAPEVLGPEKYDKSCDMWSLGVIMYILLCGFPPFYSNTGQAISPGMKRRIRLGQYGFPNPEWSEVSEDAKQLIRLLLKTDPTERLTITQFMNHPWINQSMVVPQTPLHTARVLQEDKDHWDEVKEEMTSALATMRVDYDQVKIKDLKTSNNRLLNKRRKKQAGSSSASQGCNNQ

# Block 1 — observed: enzyme activity; action: inhibitor; tested at: 10 µM
# Target: Calcium/calmodulin-dependent protein kinase type II subunit alpha (CAMK2A, Homo sapiens, UniProt Q9UQM7)
# UniProt Q9UQM7, sequence (whole entry, looked up): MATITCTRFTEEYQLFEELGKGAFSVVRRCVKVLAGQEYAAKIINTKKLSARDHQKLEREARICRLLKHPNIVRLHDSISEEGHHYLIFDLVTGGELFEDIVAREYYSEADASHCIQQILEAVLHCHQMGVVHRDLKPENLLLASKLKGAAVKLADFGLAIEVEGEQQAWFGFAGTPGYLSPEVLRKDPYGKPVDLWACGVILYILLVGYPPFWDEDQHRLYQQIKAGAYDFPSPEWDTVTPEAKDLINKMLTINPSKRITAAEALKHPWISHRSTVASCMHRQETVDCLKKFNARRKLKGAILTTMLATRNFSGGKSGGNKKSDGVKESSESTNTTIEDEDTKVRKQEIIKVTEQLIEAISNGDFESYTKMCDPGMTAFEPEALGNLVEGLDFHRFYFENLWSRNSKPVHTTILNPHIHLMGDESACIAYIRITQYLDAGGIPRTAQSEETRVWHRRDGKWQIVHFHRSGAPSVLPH
SMILES,inhibition [%]
CN(C)C(=O)COC(=O)Cc1ccc(OC(=O)c2ccc(NC(=N)N)cc2)cc1,-3
CS/C=C/C(=O)NCCO[C@@H]1O[C@H](CO)[C@@H](O)[C@H](O)[C@H]1O,19
COC(=O)/C=C/C(C)=C\C=C\C(C)=C\C=C\C=C(C)\C=C\C=C(C)\C=C\C(=O)O,-20
CC(C)(Oc1ccc(C2CC2(Cl)Cl)cc1)C(=O)O (stereo not shown),-1
CSC[C@H]1O[C@@H](n2cnc3c(N)ncnc32)[C@H](O)[C@@H]1O,9
O=P(O)(O)C(O)(Cc1cccnc1)P(=O)(O)O,-8
CC1=C(/C=C/C(C)=C/C=C/C(C)=C/C(=O)Nc2ccc(O)cc2)C(C)(C)CCC1,-8
CC(C)(C)NCC(O)COc1cccc2c1C[C@H](O)[C@H](O)C2 (mixture of isomers),-9
C[C@@H]1O[C@@H](O[C@H]2[C@H](OC(=O)[C@]34CCC(C)(C)C[C@H]3C3=CC[C@@H]5[C@@]6(C)C[C@H](O)[C@H](O[C@@H]7O[C@H](CO)[C@@H](O)[C@H](O[C@@H]8O[C@H](CO)[C@@H](O)[C@H](O)[C@H]8O)[C@H]7O)C(CO)(CO)[C@@H]6CC[C@@]5(C)[C@]3(C)C[C@H]4O)OC[C@H](O)[C@@H]2O)[C@H](O)[C@H](O)[C@H]1O[C@@H]1OC[C@@H](O)[C@H](O[C@@H]2OC[C@](O)(CO)[C@H]2O)[C@H]1O,73
CC[C@@H](C)[C@H](N)C(=O)O,-1
CC1(C)O[C@@H]2C[C@H]3[C@@H]4CCC5=CC(=O)C=C[C@]5(C)[C@@]4(F)[C@@H](O)C[C@]3(C)[C@]2(C(=O)CO)O1,-3
O=c1c(O)cc([C@H]2Oc3cc(O)cc(O)c3C[C@H]2O)cc2c([C@H]3Oc4cc(O)cc(O)c4C[C@H]3O)cc(O)c(O)c12,-13

# Block 2 — tested at: 1 µM
# Compound: CC(C)S(=O)(=O)c1ccc2nccc(Nc3ccc4sc(C5CCCC5)nc4c3)c2c1.Cl
target,observed,action,remaining activity
"Tyrosine-protein kinase Blk (BLK, Homo sapiens, UniProt P51451)",kinase activity,inhibitor,81%
"Serine/threonine-protein kinase NLK (NLK, Homo sapiens, UniProt Q9UBE8)",kinase activity,inhibitor,86%
"Activin receptor type-1-like (ACVRL1, Homo sapiens, UniProt P37023)",kinase activity,inhibitor,95%
"Tribbles homolog 2 (TRIB2, Homo sapiens, UniProt Q92519)",kinase activity,inhibitor,93%
PKG1β(h) (human),,,126% and 113%
"Mitogen-activated protein kinase kinase kinase 10 (MAP3K10, Homo sapiens, UniProt Q02779)",kinase activity,inhibitor,96%
"Serine/threonine-protein kinase TAO3 (TAOK3, Homo sapiens, UniProt Q9H2K8)",kinase activity,inhibitor,98%
"MAP kinase-activated protein kinase 3 (MAPKAPK3, Homo sapiens, UniProt Q16644)",kinase activity,inhibitor,87%

# Block 3 — SMILES: Nc1ncnc2c1cnn2-c1ccccc1; observed: enzyme activity; action: inhibitor; tested at: 0.5 µM; reference: control
target,remaining activity [%]
"Serine/threonine-protein kinase D1 (PRKD1, Homo sapiens, UniProt Q15139)",98.1
"Calcium/calmodulin-dependent protein kinase type 1G (CAMK1G, Homo sapiens, UniProt Q96NX5)",102
"Serine/threonine-protein kinase BRSK1 (BRSK1, Homo sapiens, UniProt Q8TDC3)",90.2
"Epidermal growth factor receptor (EGFR, Homo sapiens, UniProt P00533)",73
"Cyclin-dependent kinase 7 (CDK7, Homo sapiens, UniProt P50613)",102
"NT-3 growth factor receptor (NTRK3, Homo sapiens, UniProt Q16288)",93.6
"Proto-oncogene tyrosine-protein kinase receptor Ret (RET, Homo sapiens, UniProt P07949)",98.2
"STE20-like serine/threonine-protein kinase (SLK, Homo sapiens, UniProt Q9H2G2)",98
"Myotonin-protein kinase (DMPK, Homo sapiens, UniProt Q09013)",106
"Mitogen-activated protein kinase kinase kinase 8 (MAP3K8, Homo sapiens, UniProt P41279)",98.6
"Dual specificity tyrosine-phosphorylation-regulated kinase 4 (DYRK4, Homo sapiens, UniProt Q9NR20)",98.4
"Serine/threonine-protein kinase N2 (PKN2, Homo sapiens, UniProt Q16513)",125
"Mitogen-activated protein kinase 10 (MAPK10, Homo sapiens, UniProt P53779)",100

# Block 4 — observed: cell-free assay; method: competition with immobilised ligand; tested at: 0.1 µM
# SMILES: Cn1cc(Cl)c2c(Oc3c(F)cc(Nc4cc(Cl)nc(N)n4)cc3F)ccnc21
target,remaining binding
"cGMP-dependent protein kinase 2 (PRKG2, Homo sapiens, UniProt Q13237)",83%
"Mitogen-activated protein kinase 13 (MAPK13, Homo sapiens, UniProt O15264)",95%
"Serine/threonine-protein kinase PLK3 (PLK3, Homo sapiens, UniProt Q9H4B4)",98%
"TGF-beta receptor type-1 (TGFBR1, Homo sapiens, UniProt P36897)",93%
"Serine/threonine-protein kinase WNK2 (WNK2, Homo sapiens, UniProt Q9Y3S1)",88%
"Phosphatidylinositol 4,5-bisphosphate 3-kinase catalytic subunit alpha isoform (PIK3CA, Homo sapiens, UniProt P42336, E545A)",88%
"Serine/threonine-protein kinase pim-3 (PIM3, Homo sapiens, UniProt Q86V86)",100%
"Serine/threonine-protein kinase tousled-like 1 (TLK1, Homo sapiens, UniProt Q9UKI8)",100%
"Epidermal growth factor receptor (EGFR, Homo sapiens, UniProt P00533, del747-750/T751S)",88%
"Serine/threonine-protein kinase Chk2 (CHEK2, Homo sapiens, UniProt O96017)",94%
"Dual specificity mitogen-activated protein kinase kinase 1 (MAP2K1, Homo sapiens, UniProt Q02750)",90%
"Mitogen-activated protein kinase kinase kinase kinase 3 (MAP4K3, Homo sapiens, UniProt Q8IVH8)",100%
"Transient receptor potential cation channel subfamily M member 6 (TRPM6, Homo sapiens, UniProt Q9BX84)",77%
"Myosin light chain kinase family member 4 (MYLK4, Homo sapiens, UniProt Q86YV6)",91%
"Mast/stem cell growth factor receptor Kit, autoinhibited (KIT, Homo sapiens, UniProt P10721)",78%
"Serine/threonine-protein kinase MRCK alpha (CDC42BPA, Homo sapiens, UniProt Q5VT25)",84%
"Receptor-type tyrosine-protein kinase FLT3 (FLT3, Homo sapiens, UniProt P36888, R834Q)",83%
"Serine/threonine-protein kinase LATS1 (LATS1, Homo sapiens, UniProt O95835)",69%
"Ribosomal protein S6 kinase alpha-3, N-terminal kinase domain (RPS6KA3, Homo sapiens, UniProt P51812)",71%
"MAP kinase-interacting serine/threonine-protein kinase 2 (MKNK2, Homo sapiens, UniProt Q9HBH9)",90%
"Testis-specific serine/threonine-protein kinase 3 (TSSK3, Homo sapiens, UniProt Q96PN8)",100%
"Ribosomal protein S6 kinase alpha-4, N-terminal kinase domain (RPS6KA4, Homo sapiens, UniProt O75676)",87%

# Repeated from above (block 4):
target,remaining binding
"Ribosomal protein S6 kinase alpha-4, N-terminal kinase domain (RPS6KA4, Homo sapiens, UniProt O75676)",87%
"Mitogen-activated protein kinase 13 (MAPK13, Homo sapiens, UniProt O15264)",95%
"Mast/stem cell growth factor receptor Kit, autoinhibited (KIT, Homo sapiens, UniProt P10721)",78%
"Dual specificity mitogen-activated protein kinase kinase 1 (MAP2K1, Homo sapiens, UniProt Q02750)",90%
"Serine/threonine-protein kinase pim-3 (PIM3, Homo sapiens, UniProt Q86V86)",100%
"Serine/threonine-protein kinase MRCK alpha (CDC42BPA, Homo sapiens, UniProt Q5VT25)",84%
"Serine/threonine-protein kinase WNK2 (WNK2, Homo sapiens, UniProt Q9Y3S1)",88%
"MAP kinase-interacting serine/threonine-protein kinase 2 (MKNK2, Homo sapiens, UniProt Q9HBH9)",90%
"Serine/threonine-protein kinase PLK3 (PLK3, Homo sapiens, UniProt Q9H4B4)",98%
